# Measured values collected from several papers.
# A part holds a random share of what one study measured. Several values in a cell are separate wells, animals, samples, runs or records.
# UniProt Q9UKT9, sequence (whole entry, looked up): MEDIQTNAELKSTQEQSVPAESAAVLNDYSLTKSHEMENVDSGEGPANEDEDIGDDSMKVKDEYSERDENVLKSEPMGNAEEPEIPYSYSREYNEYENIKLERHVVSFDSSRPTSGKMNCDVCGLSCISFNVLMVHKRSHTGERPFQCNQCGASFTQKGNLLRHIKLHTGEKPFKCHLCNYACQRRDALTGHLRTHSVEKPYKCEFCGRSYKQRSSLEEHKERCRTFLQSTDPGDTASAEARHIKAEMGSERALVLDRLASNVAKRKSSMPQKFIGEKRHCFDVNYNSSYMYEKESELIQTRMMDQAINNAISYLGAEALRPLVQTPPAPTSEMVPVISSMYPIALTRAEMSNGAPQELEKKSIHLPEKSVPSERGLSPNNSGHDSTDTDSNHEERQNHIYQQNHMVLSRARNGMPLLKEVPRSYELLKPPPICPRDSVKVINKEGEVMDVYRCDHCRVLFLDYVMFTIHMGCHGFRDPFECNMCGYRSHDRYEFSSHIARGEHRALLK
# UniProt Q07002, sequence (whole entry, looked up): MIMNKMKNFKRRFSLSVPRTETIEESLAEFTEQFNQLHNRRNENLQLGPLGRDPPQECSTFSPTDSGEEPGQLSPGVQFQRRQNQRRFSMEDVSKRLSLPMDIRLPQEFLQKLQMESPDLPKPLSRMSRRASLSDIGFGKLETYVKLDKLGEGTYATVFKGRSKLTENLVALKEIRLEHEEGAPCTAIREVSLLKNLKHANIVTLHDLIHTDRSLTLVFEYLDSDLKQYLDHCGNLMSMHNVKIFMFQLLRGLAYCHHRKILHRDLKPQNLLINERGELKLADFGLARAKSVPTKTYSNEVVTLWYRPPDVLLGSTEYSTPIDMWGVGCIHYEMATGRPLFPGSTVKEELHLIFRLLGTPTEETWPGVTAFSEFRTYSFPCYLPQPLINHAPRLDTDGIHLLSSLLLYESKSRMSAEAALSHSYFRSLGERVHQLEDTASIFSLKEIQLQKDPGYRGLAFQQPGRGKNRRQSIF
# UniProt P35626, sequence (whole entry, looked up): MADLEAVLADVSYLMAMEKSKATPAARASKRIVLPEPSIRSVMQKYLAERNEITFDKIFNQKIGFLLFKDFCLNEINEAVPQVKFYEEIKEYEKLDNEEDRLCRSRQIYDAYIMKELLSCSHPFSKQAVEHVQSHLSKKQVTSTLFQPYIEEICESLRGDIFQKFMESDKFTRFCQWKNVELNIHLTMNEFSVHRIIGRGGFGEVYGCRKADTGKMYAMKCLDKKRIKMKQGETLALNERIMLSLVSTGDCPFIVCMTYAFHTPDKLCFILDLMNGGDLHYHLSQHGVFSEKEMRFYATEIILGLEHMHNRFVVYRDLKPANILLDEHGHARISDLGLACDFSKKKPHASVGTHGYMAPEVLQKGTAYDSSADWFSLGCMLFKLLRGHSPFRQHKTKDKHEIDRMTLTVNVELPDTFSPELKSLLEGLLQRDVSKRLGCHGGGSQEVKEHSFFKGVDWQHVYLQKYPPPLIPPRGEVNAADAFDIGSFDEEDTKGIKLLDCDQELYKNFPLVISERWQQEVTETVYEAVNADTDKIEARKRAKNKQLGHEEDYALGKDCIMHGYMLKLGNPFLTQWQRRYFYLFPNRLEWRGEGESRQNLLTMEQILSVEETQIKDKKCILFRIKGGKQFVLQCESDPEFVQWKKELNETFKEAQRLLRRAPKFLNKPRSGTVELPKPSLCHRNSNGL
# UniProt P29597, sequence (whole entry, looked up): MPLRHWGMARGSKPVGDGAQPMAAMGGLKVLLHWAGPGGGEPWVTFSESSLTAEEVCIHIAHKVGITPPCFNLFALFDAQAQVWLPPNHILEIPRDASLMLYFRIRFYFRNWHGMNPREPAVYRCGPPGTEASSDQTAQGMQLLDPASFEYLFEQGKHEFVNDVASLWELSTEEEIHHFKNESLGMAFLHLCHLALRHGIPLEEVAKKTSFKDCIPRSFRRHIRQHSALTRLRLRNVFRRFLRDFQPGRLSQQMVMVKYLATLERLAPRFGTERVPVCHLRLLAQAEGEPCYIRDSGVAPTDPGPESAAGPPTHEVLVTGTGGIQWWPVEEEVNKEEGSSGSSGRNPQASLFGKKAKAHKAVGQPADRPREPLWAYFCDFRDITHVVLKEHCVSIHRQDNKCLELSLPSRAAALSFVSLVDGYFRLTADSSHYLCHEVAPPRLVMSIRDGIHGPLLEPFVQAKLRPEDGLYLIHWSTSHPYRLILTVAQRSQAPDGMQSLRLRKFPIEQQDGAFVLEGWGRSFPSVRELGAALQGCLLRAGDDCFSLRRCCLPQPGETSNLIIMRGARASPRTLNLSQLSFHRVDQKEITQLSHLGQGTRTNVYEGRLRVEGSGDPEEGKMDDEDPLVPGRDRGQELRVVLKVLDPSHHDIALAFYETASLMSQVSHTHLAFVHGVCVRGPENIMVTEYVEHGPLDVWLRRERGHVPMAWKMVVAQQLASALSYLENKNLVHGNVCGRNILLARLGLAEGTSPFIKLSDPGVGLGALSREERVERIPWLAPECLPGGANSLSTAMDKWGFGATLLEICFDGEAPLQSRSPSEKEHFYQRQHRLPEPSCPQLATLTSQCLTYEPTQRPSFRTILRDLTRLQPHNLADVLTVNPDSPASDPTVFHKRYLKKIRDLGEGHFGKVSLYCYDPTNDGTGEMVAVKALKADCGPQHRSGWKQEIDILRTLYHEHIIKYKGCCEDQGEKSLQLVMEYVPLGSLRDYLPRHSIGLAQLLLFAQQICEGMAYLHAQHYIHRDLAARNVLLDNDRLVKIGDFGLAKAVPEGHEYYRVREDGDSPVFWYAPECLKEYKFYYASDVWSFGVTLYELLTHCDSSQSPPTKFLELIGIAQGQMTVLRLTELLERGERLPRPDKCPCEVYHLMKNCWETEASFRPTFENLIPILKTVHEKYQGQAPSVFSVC
# UniProt Q08345, sequence (whole entry, looked up): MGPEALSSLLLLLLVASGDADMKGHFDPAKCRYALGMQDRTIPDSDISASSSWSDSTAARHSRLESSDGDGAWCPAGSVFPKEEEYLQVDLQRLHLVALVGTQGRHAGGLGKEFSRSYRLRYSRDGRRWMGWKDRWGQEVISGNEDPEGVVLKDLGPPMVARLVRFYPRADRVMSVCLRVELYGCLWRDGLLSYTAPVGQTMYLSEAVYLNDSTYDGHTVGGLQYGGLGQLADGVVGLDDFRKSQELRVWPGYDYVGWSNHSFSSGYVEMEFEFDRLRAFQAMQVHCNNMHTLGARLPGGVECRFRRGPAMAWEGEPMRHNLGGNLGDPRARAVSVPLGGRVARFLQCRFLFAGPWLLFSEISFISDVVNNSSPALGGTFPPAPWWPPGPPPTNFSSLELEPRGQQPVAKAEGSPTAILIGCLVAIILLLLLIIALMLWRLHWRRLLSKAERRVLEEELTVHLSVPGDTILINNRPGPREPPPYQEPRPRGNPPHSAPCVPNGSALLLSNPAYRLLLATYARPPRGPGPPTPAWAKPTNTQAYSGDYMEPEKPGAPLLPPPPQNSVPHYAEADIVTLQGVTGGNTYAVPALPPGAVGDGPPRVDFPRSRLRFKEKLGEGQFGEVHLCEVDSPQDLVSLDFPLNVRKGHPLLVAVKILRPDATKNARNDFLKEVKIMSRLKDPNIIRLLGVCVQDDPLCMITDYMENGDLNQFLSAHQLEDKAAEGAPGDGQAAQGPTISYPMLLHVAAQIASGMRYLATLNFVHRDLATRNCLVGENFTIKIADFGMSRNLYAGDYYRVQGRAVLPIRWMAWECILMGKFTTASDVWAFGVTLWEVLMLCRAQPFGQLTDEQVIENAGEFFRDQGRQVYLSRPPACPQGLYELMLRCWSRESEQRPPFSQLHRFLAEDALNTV

# Sample 1
# Structure (SMILES): C[C@H]1CC[C@H](n2c3cnccc3c3cnc(Nc4ccc5c(n4)CCN(C(=O)CO)C5)nc32)CC1
# Method: competition with immobilised ligand
# Concentration: 1 µM
target,observed,remaining binding [%]
"Non-receptor tyrosine-protein kinase TYK2, JH2 (TYK2, Homo sapiens, UniProt P29597)",binding,13
"ABL2 (Homo sapiens, UniProt P42684)",binding,87
"FGFR2 (Homo sapiens, UniProt P21802)",cell-free assay,100
"DDR1 (Homo sapiens, UniProt Q08345)",cell-free assay,52
"NTRK2 (Homo sapiens, UniProt Q16620)",cell-free assay,5
"MAPK11 (Homo sapiens, UniProt Q15759)",binding,87
"RPS6KA5 (Homo sapiens, UniProt O75582)",binding,88

# Sample 2
# SMILES: Nc1c(C(=O)NCc2ccc(C(=O)NCCCC3CCCCC3)cc2)cnn1-c1ccccc1
# Observed: cell-free assay
# Method: competition with immobilised ligand
# Concentration: 0.1 µM
target,remaining binding [%]
"CDK18 (Homo sapiens, UniProt Q07002)",100
"MAPK6 (Homo sapiens, UniProt Q16659)",92
"PIK3CD (Homo sapiens, UniProt O00329)",94
"PTK2 (Homo sapiens, UniProt Q05397)",99
"GRK3 (Homo sapiens, UniProt P35626)",100

# Sample 3
# Target: Cyclin-dependent kinase 3, with cyclin E (CDK3, Homo sapiens, UniProt Q00526)
# UniProt Q00526, sequence (whole entry, looked up): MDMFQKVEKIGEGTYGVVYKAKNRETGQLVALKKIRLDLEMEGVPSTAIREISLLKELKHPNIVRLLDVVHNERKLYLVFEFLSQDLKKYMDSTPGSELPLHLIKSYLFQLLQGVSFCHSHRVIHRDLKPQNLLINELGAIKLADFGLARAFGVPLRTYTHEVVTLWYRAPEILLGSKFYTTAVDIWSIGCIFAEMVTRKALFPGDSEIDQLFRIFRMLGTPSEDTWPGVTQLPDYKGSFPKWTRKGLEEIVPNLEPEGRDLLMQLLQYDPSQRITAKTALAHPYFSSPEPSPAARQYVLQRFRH
# Observed: enzyme activity
# Action: inhibitor
# Concentration: 0.5 µM
# Relative to: control
Compound,remaining activity [%]
Nc1ncnc2n[nH]c(Nc3ccc(F)cc3)c12,104
COc1cc2nccc(Oc3ccc(NC(=S)NC(=O)c4ccccc4C)cc3)c2cc1OC,86.6
Cc1nc(-c2ccccc2)c(-c2ccncc2)o1,98.1
O=c1c2ccccc2[nH]c(=S)n1CCN1CCC(=C(c2ccc(F)cc2)c2ccc(F)cc2)CC1,100
N#CC(C#N)=C(N)/C(C#N)=C/c1ccc(O)cc1,96.8
O=C1NC(=O)C(c2cn(CCCn3ccnc3)c3ccccc23)=C1Nc1ccccc1,90.9
COc1ccc(OC)c2c(=S)c3ccccc3[nH]c12,87.7
C#Cc1cccc(Nc2ncnc3cc(OCCOC)c(OCCOC)cc23)c1,95.6
O=S(=O)(c1cccc2cnccc12)N1CCCNCC1,76.6
Cn1sc(=O)n(Cc2ccccc2)c1=O,78.1
CC(C)[C@H](CO)Nc1nc(Nc2cc(N)cc(Cl)c2)c2ncn(C(C)C)c2n1,31.9
COc1cc2ncnc(Nc3ccc(F)c(Cl)c3)c2cc1OCCCN1CCOCC1,95
O=C(CCCc1ccc(-c2ccccc2F)cc1)Nc1ccc(O)cc1,92.6
O=C(O)c1ccc2c3c1cccc3c(=O)n1c3ccccc3nc21,97.9
Oc1ccc(-c2nc(-c3ccncc3)c(-c3ccc(F)cc3)[nH]2)cc1,96.7
CCOC(=O)c1c(C)[nH]c(/C=C2\C(=O)Nc3ccccc32)c1C,94

# Sample 4
# Compound: O=C1CCC(N2Cc3cc(C4CCN(Cc5ccccc5)CC4)ccc3C2=O)C(=O)N1 (centres unmarked)
# Action: degrader
# Method: HiBiT
# CSNK1A1: Casein kinase I isoform alpha (CSNK1A1, Homo sapiens, UniProt P48729)
# UniProt P48729, sequence (whole entry, looked up): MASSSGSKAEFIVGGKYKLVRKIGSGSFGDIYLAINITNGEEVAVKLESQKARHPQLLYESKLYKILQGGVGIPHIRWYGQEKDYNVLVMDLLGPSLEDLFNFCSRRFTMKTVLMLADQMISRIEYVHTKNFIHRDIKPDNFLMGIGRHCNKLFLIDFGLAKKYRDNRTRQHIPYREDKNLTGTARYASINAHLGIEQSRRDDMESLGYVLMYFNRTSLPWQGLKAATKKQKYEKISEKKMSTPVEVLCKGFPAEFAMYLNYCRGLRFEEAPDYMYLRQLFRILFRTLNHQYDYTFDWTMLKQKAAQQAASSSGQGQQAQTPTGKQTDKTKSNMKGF
# IKZF4: Zinc finger protein Eos (IKZF4, Homo sapiens, UniProt Q9H2S9)
# UniProt Q9H2S9, sequence (whole entry, looked up): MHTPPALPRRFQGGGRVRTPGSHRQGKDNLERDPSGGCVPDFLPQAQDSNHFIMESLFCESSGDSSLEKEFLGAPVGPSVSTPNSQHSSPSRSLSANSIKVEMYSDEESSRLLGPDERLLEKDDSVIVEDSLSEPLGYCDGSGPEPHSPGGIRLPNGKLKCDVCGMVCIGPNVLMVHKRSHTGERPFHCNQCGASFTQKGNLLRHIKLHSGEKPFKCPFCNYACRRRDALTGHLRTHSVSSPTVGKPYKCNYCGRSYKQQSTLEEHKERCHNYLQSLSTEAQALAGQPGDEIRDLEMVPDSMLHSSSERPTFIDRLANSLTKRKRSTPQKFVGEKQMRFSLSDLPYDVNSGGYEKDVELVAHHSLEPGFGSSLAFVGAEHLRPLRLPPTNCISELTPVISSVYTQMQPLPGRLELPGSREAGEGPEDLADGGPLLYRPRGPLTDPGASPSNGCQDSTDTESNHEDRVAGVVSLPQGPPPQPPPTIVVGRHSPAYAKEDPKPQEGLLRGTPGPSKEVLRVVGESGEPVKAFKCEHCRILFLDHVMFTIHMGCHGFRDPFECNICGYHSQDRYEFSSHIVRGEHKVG
target,cell line,concentration,time,remaining protein
CSNK1A1,HEK293 HiBiT-CK1α,3333.33 nM,,103% and 84.5%
"Zinc finger protein Aiolos (Homo sapiens, UniProt Q9UKT9)",HEK293,0.1235 µM,,88.2% and 83.7%
CSNK1A1,HEK293 HiBiT-CK1α,41.15 nM,,85.7% and 91.6%
IKZF4,HEK293,0.0004572 µM,6 h,118%
"DNA-binding protein Ikaros (Homo sapiens, UniProt Q13422)",HEK293,0.001524 µM,6 h,90.1%
"Sal-like protein 4 (SALL4, Homo sapiens, UniProt Q9UJQ4)",HEK293,0.01372 µM,6 h,59.7%
IKZF4,HEK293,5.08e-05 µM,3 h,113%

# Excerpt of the above (sample 1):
target,observed,remaining binding [%]
"ABL2 (Homo sapiens, UniProt P42684)",binding,87
"FGFR2 (Homo sapiens, UniProt P21802)",cell-free assay,100
